# Experimental data of several laboratories.
# Every numbered part comes from another study and shows a few of its results, in no order.

# Block 1
# Target: Sal-like protein 4, full length isoform A (SALL4, Homo sapiens, UniProt Q9UJQ4, residues 1-1053)
# Sequence of UniProt Q9UJQ4 (whole entry, looked up): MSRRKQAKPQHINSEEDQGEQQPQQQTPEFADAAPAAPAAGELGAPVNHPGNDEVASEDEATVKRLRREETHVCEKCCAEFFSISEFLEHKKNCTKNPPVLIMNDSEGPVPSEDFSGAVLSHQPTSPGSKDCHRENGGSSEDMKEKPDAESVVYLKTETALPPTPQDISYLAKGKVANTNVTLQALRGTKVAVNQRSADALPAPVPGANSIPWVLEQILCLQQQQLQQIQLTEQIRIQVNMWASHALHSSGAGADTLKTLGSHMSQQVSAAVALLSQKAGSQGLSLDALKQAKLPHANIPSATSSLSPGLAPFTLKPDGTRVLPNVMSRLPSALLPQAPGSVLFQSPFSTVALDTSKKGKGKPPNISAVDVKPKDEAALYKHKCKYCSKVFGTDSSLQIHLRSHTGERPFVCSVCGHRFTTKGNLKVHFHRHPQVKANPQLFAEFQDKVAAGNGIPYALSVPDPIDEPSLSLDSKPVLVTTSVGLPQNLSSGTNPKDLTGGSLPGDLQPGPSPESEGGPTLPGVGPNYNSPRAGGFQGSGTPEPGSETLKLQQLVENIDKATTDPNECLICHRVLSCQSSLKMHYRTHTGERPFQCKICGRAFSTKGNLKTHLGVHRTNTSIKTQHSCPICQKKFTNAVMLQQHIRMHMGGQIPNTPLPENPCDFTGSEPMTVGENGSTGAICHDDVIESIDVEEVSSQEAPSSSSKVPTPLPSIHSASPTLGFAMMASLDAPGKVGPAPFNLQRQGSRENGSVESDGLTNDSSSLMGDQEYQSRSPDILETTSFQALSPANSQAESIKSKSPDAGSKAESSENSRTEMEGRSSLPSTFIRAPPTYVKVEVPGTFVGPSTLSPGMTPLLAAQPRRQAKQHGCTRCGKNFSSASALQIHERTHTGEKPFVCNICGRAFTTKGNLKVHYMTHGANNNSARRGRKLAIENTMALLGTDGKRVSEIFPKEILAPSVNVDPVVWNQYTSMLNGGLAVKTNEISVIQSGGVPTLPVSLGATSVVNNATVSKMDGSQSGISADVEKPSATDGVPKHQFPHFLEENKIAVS
# Method: universal PBM
# Molecule type: double-stranded DNA, one strand shown
# Medium: in vitro
# Tested at: 600 nM
# Setting: 8-mer, flanks averaged, mean of replicates
# Direction: higher = stronger binding
Strand,E-score
CTCCGGGC,-0.328
CGTAGTAC,0.0187
CCGGATTA,-0.092
AGCCTTAT,0.16
CCCTTAAA,0.119
GGGAGGAA,-0.081
ACCGAGAC,-0.116
GGACCCGA,-0.275

# Block 2
# Target: Histone acetyltransferase KAT6A, winged helix 2, GST fusion (KAT6A, Homo sapiens, UniProt Q92794, residues 85-181)
# Method: protein binding microarray
# Molecule type: double-stranded DNA, one strand shown
# Medium: in vitro
# Tested at: not given
# Setting: 8-mer, flanks averaged, mean of 2 arrays, mostly near background
# Reference: not given
# Direction: higher = stronger binding
# Residues (chain): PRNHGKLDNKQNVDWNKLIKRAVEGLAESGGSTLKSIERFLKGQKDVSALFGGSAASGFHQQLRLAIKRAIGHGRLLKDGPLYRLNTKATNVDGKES
Strand,E-score
ACCGGGAA,0.0484
TTGTAAAA,0.00089
AGCATGGG,-0.104
CGCTACGA,0.0391
GAAAACGA,0.00392
ACGCGTAC,-0.0406

# Block 3
# Target: RING finger protein unkempt homolog, zinc fingers 1-6, GST-SBP tag (UNK, Homo sapiens, UniProt Q9C0B0, residues 30-357)
# Sequence of UniProt Q9C0B0 (30-357, looked up): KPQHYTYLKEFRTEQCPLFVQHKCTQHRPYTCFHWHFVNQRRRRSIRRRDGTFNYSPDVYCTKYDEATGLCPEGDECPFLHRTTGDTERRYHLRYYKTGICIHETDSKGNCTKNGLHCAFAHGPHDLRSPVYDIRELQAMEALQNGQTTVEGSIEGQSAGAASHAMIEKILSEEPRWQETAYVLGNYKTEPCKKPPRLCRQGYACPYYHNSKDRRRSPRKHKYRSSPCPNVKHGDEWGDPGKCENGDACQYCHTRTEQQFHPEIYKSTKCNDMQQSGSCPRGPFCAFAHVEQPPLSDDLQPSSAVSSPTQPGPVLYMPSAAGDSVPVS
# Method: RNA Bind-n-Seq
# Molecule type: RNA
# Medium: in vitro
# Tested at: not given
# Setting: RNA with constant flanks, ends assumed
# Reference: input RNA pool
# Direction: higher = stronger binding
Strand,bound/input enrichment [ratio]
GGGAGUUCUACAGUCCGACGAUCUAAUGUAAACUUUCCAGUGGAUUGUUACUUACACACCUGAUACUAAGAAUUAAGUAGAAGACCGAUUUUUAUGGACACUCUAGCUGUAUUGGAGCACUACUGGAUUUUAUAUUUCAGUCACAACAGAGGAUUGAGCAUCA,0.26
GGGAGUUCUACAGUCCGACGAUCAAAAGGGAUUUGGGCCACUACCCAGCUAUUAUUGUUCAGUCAGUUGUGUCUCCUACCCACACCGACAUGUGUGUGCAUAUGUACAACACACACACACACACACACACACACACACACACACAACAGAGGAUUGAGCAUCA,0.786
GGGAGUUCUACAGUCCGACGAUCUCUGGCCAUACUCGUGCAUAUGGUGUGUGCUUUGUUGAUACUUCACUGGGAAAGUUUUUCACCGGUCAGUUUUCAGAUGAUCGCCAUUGUUCGAGAUUUAGGACUCUAGUGGCACACUAUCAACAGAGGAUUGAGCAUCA,0.285
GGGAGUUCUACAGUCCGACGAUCUCUCCACAAUCAAUAGGUUUCCAAGCAACAAUCAGUGCUCCACACAUGCAUGCAUAUGCGCCCGAACUUCUAUUUGAUCAGUUGCAUGAAGGAGCUAAAGCUCUUGAUGUAGGAUCUGGACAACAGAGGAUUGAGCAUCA,0.586
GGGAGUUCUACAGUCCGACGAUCUCUGAAUCGGAGCAGGCUCUUAAAGGUACCUCUCAGAUUAAGUUACUCUCAUCUGAAGAUACCGAAGGGAUGCGACUCGUGUGUAGGCUUGCCAGAGAAGUUUUGGACAUUGCUGCUGGGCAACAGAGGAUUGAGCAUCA,0.181
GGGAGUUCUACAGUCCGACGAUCUGGGGUGGGGUGGGGUGGGGGUGGGGGCCUUCCCUCUGCUUGCUCUGCAGAUGAGGGGACCGCCUUCUCUAUCCUUUGCAGCUCUGACAAUUGCCCCGGACCUGCCCAUGCCGGCAUACCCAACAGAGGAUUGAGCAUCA,0.736
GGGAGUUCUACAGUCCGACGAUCAAGCUAUAAUGAGUUUUUCUAAAUUAAGGGAACUCUGCUACUUCCUUUUUUUUUUUUUUUAACCGUUGGUCUACAAGUGCGCAUUGGUAGGGUGUCCAGCAGAUGGAUGGGGGCUGAUGGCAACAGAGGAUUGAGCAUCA,1.18
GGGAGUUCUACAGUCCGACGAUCUGGCUUAAUCAAAUCAUGCCUAAGAAAGACCCUGUGAAAAUUGUCCGAUGCCAUGAACACACCGAAAUCCUUACAGUAAAUGGAGAAUUACUGUUUUUUAGACAAAGAGAAGGGCCUUUUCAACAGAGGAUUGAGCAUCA,0.7
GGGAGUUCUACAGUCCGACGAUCUUGCUGUCCUCUUGCUGAUGGCUGCUAGAUUUAAUUUAUUUGCUUCCCUCCUUGAUAACAUCCGUGAUUCUGAUUUCAGUUUUUCAUUUGUUUUGCUUUUGUUUUUUUCCUCGUGUAACACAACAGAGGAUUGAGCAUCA,2.03

# Other studies, line by line
Substance,target,assay,test system,conditions,scale,quantity,result
"PhoQ, residues 284 288 289 292 302 303 DDMDFR","PhoP, residues 12 14 15 18 19 MHTVL (Escherichia coli, UniProt P23836)","Sort-seq, item: YFP reporter",E. coli,"PhoQ-PhoP variant library, added: 10 µM Mg2+","reference: high Mg2+ state, higher = stronger signaling",fold induction,0.693

# Some of these lines once more (block 2):
Strand,E-score
ACCGGGAA,0.0484
CGCTACGA,0.0391
